Measurements collected from several papers.
Lines come from different studies, so protocols differ. Several values in a cell are separate wells, animals, samples, runs or records. In brackets after ≈: the same amount, converted by molar mass.
Organism: Escherichia coli

Compound | assay | test system | conditions | scale | endpoint | result
Cc1cc(-c2cn[nH]c2-c2cccc(OCc3cccc(C#N)c3)c2)cc(C)n1 | – | multidrug-resistant clinical isolates | – | – | MIC90 | 4 µg/mL (≈ 10.5 µM)
CC(C)C[C@H](NC(=O)[C@H](CCN)NC(=O)[C@H](CCN)NC(=O)[C@@H](Cc1ccccc1)NC(=O)[C@H](CC(C)C)NC(=O)[C@H](CCN)NC(=O)[C@H](CCN)NC(=O)[C@@H](CCN)NC(=O)[C@@H](N)CSCCOC(=O)C(C)(C)C)C(N)=O | – | ATCC 10546 | 24 h, 37 °C | – | MBC | 16 µM
C[C@@H](O)[C@H]1C(=O)N2C(C(=O)O)=C(S[C@@H]3CN[C@H](C(=O)N(C)C)C3)[C@H](C)[C@H]12 | – | DH5a clone with KPC-100 | – | reference: empty vector strain | MIC fold increase | > 4 fold
COc1cc2ccc3oc([N+](=O)[O-])cc3c2cc1OC | REMA | – | – | – | MIC90 | > 32 µg/mL
CC(C)C[C@H](NC(=O)[C@H](CCCCN)NC(=O)OCC1c2ccccc2-c2ccccc21)C(=O)N[C@H](C(=O)N[C@@H](Cc1ccccc1)C(=O)N[C@@H](Cc1ccccc1)C(=O)N[C@@H](CCCCN)C(=O)NCC(=O)N[C@@H](Cc1ccccc1)C(=O)N[C@@H](C)C(=O)N[C@@H](Cc1c[nH]c2ccccc12)C(=O)N[C@@H](CC(N)=O)C(=O)N[C@H](C(=O)N[C@H]1CSSC[C@@H](C(=O)N[C@@H](Cc2c[nH]cn2)C(=O)N[C@@H](CCCNC(=N)N)C(=O)N[C@@H](CCCNC(=N)N)C(=O)N[C@@H](C)C(=O)N[C@@H](CC(N)=O)C(N)=O)NC(=O)[C@H](C(C)C)NC(=O)[C@H](CCCNC(=N)N)NC(=O)[C@H](C(C)C)NC(=O)CNC(=O)[C@H](CC(N)=O)NC(=O)[C@H](CCCNC(=N)N)NC(=O)[C@H](Cc2ccc(O)cc2)NC(=O)[C@H](C(C)C)NC1=O)C(C)C)C(C)C | bactericidal activity | CGMCC 1.9 | 24 h | – | Emax | -5.13 log CFU
O=C(O)c1cccc(C(=O)O)n1 | – | VIM-2 producer | 32 µg/mL, with: meropenem | reference: meropenem alone | fold MIC reduction | 64
C[C@@H](O)[C@H]1C(=O)N2C(C(=O)O)=C(S[C@@H]3CN[C@H](C(=O)N(C)C)C3)[C@H](C)[C@H]12 | – | NDM-1 positive | 10 µg/disk, compound alone | – | inhibition zone diameter | 11.2 mm
C[C@@H](O)[C@H]1C(=O)N2C(C(=O)O)=C(SCCN=CN)C[C@H]12 | – | DH5a clone with KPC-100 | – | reference: empty vector strain | MIC fold increase | 8 fold
C[C@@H](O)[C@H]1C(=O)N2C(C(=O)O)=C(S[C@@H]3CN[C@H](CNS(N)(=O)=O)C3)[C@H](C)[C@H]12 | checkerboard | carbapenem-resistant | concentration not given, with: anionic gold nanoparticle 8 µg/mL | reference: MIC alone over combination | MIC fold reduction | > 16 fold
CCCCCCCCCC(=O)N[C@@H](Cc1c[nH]c2ccccc12)C(=O)N[C@H](CC(N)=O)C(=O)N[C@@H](CC(=O)O)C(=O)N[C@@H]1C(=O)NCC(=O)N[C@@H](CCCN)C(=O)N[C@@H](CC(=O)O)C(=O)N[C@H](C)C(=O)N[C@@H](CC(=O)O)C(=O)NCC(=O)N[C@H](CO)C(=O)N[C@@H]([C@H](C)CC(=O)O)C(=O)N[C@@H](CC(=O)c2ccccc2N)C(=O)O[C@@H]1C | broth dilution | drug-resistant | concentration not given | – | MIC activity class | inactive
C[C@@H](O)[C@H]1C(=O)N2C(C(=O)O)=C(S[C@@H]3CN[C@H](C(=O)N(C)C)C3)[C@H](C)[C@H]12 | – | neutropenic rat, lung infection | intravenous, 15 mg/kg every 12 h, second study | – | log10 CFU difference | -0.25 and -0.28 and -0.7
CCCCCC(=O)N[C@@H](CCCNC(=N)N)C(=O)N[C@@H](CCCNC(=N)N)C(=O)N[C@@H](CCCNC(=N)N)C(=O)N[C@@H](CCCNC(=N)N)C(=O)N[C@H](C(=O)N[C@@H](CC(C)C)C(=O)N[C@H](C(=O)N[C@@H](CCCNC(=N)N)C(=O)N[C@@H](CCCNC(=N)N)C(=O)N[C@H](C(=O)N[C@@H](CC(C)C)C(=O)N[C@@H](CCCNC(=N)N)C(=O)N[C@@H](CC(C)C)C(=O)N[C@@H](CCCNC(=N)N)C(=O)N[C@@H](CO)C(=O)N[C@@H](CO)C(=O)N[C@@H](C)C(=O)N[C@@H](Cc1ccc(O)cc1)C(N)=O)C(C)C)[C@@H](C)CC)[C@@H](C)CC | checkerboard | – | unit not given, with: azithromycin | lower means synergy | FICI | ~0.19
CC(C)Cc1ccc(C(C)C(=O)O)cc1 (stereo not drawn) | – | MG1655 RecA-GFP | 10 µM, 4 h | – | SOS response induction | 10%
COc1ccc(CC2NCCc3cc(OC)c(OC)cc32)cc1OC.Cl (stereo not drawn) | – | – | 24 h, 37 °C | – | MIC | > 1600 µM
CC[C@@H](C)[C@@H](N)C(=O)N[C@@H](C(=O)N[C@H](Cc1ccc(O)cc1)C(=O)N[C@@H](C(=O)N[C@H](CCN)C(=O)N[C@H](CC(C)C)C(=O)N[C@H](CO)C(=O)N[C@H](CCN)C(=O)N[C@@H](C(=O)N[C@H](CCN)C(=O)N[C@H](Cc1c[nH]cn1)C(=O)N[C@H](CCN)C(=O)N[C@H](C)C(=O)N[C@H](CCN)C(=O)N[C@H](CCN)C(N)=O)[C@H](C)CC)[C@H](C)CC)[C@H](C)CC | – | ATCC 25922, 100% human serum | 20 h, 37 °C | – | MBC | 8 µg/mL
CC[C@H](C)[C@H](NC(=O)[C@H](CCCNC(=N)N)NC(=O)[C@H](CCCNC(=N)N)NC(=O)[C@H](CCCNC(=N)N)NC(=O)[C@H](CCCNC(=N)N)NC(=O)[C@H](CCCNC(=N)N)NC(=O)[C@@H](N)CCCNC(=N)N)C(=O)N[C@@H](CO)C(=O)N[C@@H](Cc1ccccc1)C(=O)N[C@@H](CC(C)C)C(=O)NCC(=O)N[C@@H](CO)C(=O)N[C@@H](CCCCN)C(=O)N[C@@H](CCCCN)C(=O)N[C@@H](CCCCN)C(=O)N[C@@H](CCCCN)C(=O)N[C@@H](CCCCN)C(=O)N[C@@H](CC(C)C)C(=O)N[C@@H](CC(C)C)C(=O)N[C@@H](CCCCN)C(=O)N[C@@H](CCCNC(=N)N)C(N)=O | checkerboard | – | unit not given, with: rifampicin | lower means synergy | FICI | 0.13
C[C@@H](O)[C@H]1C(=O)N2C(C(=O)O)=C(S[C@@H]3CN[C@H](C(=O)Nc4cccc(C(=O)O)c4)C3)[C@H](C)[C@H]12 | checkerboard | carbapenem-resistant | concentration not given, with: anionic gold nanoparticle 8 µg/mL | reference: MIC alone over combination | MIC fold reduction | > 64 fold
O=C(O)c1cn(C2CC2)c2cc(N3CCNCC3)c(F)cc2c1=O | – | ATCC 25922, BALB/c mice, Escherichia coli infected | intravenous, 10 mg/kg, 7 days, dosed 1 h after infection | – | survival | 100%
CCCCc1c([N+](=O)[O-])oc2ccc3ccccc3c12 | REMA | – | – | – | MIC90 | > 32 µg/mL
CC[C@H](C)[C@H](NC(=O)[C@H](CC(C)C)NC(=O)[C@H](CCCNC(=N)N)NC(=O)[C@H](CCCNC(=N)N)NC(=O)[C@H](CCCNC(=N)N)NC(=O)[C@H](CCCNC(=N)N)NC(=O)[C@H](CC(C)C)NC(=O)[C@@H](NC(=O)[C@@H](NC(=O)[C@@H](NC(=O)[C@H](CC(C)C)NC(=O)[C@H](CCCNC(=N)N)NC(=O)[C@H](CO)NC(=O)[C@@H](N)CO)C(C)C)[C@@H](C)CC)[C@@H](C)CC)C(=O)N[C@@H](CO)C(=O)N[C@@H](CCCNC(=N)N)C(=O)N[C@@H](CCCNC(=N)N)C(=O)N[C@@H](CCCNC(=N)N)C(=O)N[C@@H](CCCNC(=N)N)C(N)=O | – | – | – | – | MIC range | 1 to 2 µM (≈ 2.46 to 4.92 µg/mL)
COc1ccc2ccc3oc([N+](=O)[O-])cc3c2c1Br | REMA | – | – | – | MIC90 | 0.1 µg/mL (≈ 0.31 µM)
CC[C@H](C)[C@H](NC(=O)[C@H](Cc1ccc(O)cc1)NC(=O)[C@@H](NC(=O)[C@H](Cc1c[nH]c2ccccc12)NC(=O)[C@@H]1CCCN1C(=O)[C@@H](NC(=O)[C@H](C)N)[C@@H](C)CC)[C@@H](C)CC)C(=O)N[C@@H](Cc1ccc(O)cc1)C(=O)N[C@@H](CCCNC(=N)N)C(=O)N[C@@H](CC(C)C)C(=O)N[C@@H](CC(C)C)C(=O)N[C@@H](CCCNC(=N)N)C(=O)N[C@@H](CCCCN)C(=O)NCC(=O)O | – | D31 | 18 h, 37 °C | – | MBC | 7.5 µM
CC[C@H](C)[C@H](NC(=O)[C@H](CC(N)=O)NC(=O)[C@H](Cc1ccccc1)NC(=O)[C@H](CCCNC(=N)N)NC(=O)[C@H](CCCNC(=N)N)NC(=O)[C@@H](N)CCCCN)C(=O)N[C@@H](CCCCN)C(=O)N[C@@H](CC(C)C)C(=O)N[C@@H](Cc1c[nH]c2ccccc12)C(=O)N[C@@H](CCCCN)C(=O)N[C@H](C(=O)N[C@@H](Cc1ccccc1)C(=O)O)[C@@H](C)O | – | K12 MG1655 | – | – | MBC | 32 µg/mL
CC[C@H](C)[C@H](NC(=O)[C@H](C)N)C(=O)N[C@@H](CO)C(=O)NCC(=O)N[C@@H](CO)C(=O)N[C@@H](CC(C)C)C(=O)N[C@H](C(=O)N[C@H](C(=O)N[C@@H](CC(C)C)C(=O)N[C@@H](Cc1ccccc1)C(=O)NCC(=O)N[C@@H](Cc1ccc(O)cc1)C(=O)N[C@@H](CCCNC(=N)N)C(=O)N[C@@H](CCCCN)C(=O)N[C@@H](CCCNC(=N)N)C(=O)N[C@@H](CCCCN)C(=O)N[C@@H](CCCNC(=N)N)C(=O)N[C@@H](CCCCN)C(N)=O)[C@@H](C)O)C(C)C | checkerboard | – | unit not given, with: azithromycin | lower means synergy | FICI | 0.5
N#Cc1ccc2c(ccc3oc([N+](=O)[O-])cc32)c1 | REMA | – | – | – | MIC90 | > 32 µg/mL
CC[C@H](C)[C@H](NC(=O)[C@H](CCCNC(=N)N)NC(=O)[C@H](CCCNC(=N)N)NC(=O)[C@H](CCCNC(=N)N)NC(=O)[C@H](CCCNC(=N)N)NC(=O)[C@H](CCCNC(=N)N)NC(=O)[C@@H](N)CCCNC(=N)N)C(=O)N[C@@H](CO)C(=O)N[C@@H](Cc1ccccc1)C(=O)N[C@@H](CC(C)C)C(=O)NCC(=O)N[C@@H](CO)C(=O)N[C@@H](CCCCN)C(=O)N[C@H](C(=O)N[C@H](C(=O)N[C@H](C(=O)N[C@@H](CC(C)C)C(=O)N[C@@H](CC(C)C)C(=O)N[C@@H](CCCCN)C(=O)N[C@@H](CCCNC(=N)N)C(=O)N[C@@H](CCCNC(=N)N)C(=O)N[C@@H](CCCNC(=N)N)C(=O)N[C@@H](CCCNC(=N)N)C(=O)N[C@@H](CCCNC(=N)N)C(N)=O)C(C)C)C(C)C)C(C)C | checkerboard | – | unit not given, with: azithromycin | lower means synergy | FICI | ~0.38
COc1ccc2c(ccc3oc([N+](=O)[O-])cc32)c1 | REMA | – | – | – | MIC90 | 1.5 µg/mL (≈ 6.17 µM)
